Published values gathered from unrelated publications.
Protocols differ between the studies behind these lines. Values joined by “and” are separate records of one study, mostly repeats; a detail may differ. ± gives the spread as reported.
NR3C1: Glucocorticoid receptor (NR3C1, Homo sapiens, UniProt P04150)

Amino acid sequences for entries named in this document (tags omitted).
UniProt P04150, whole entry: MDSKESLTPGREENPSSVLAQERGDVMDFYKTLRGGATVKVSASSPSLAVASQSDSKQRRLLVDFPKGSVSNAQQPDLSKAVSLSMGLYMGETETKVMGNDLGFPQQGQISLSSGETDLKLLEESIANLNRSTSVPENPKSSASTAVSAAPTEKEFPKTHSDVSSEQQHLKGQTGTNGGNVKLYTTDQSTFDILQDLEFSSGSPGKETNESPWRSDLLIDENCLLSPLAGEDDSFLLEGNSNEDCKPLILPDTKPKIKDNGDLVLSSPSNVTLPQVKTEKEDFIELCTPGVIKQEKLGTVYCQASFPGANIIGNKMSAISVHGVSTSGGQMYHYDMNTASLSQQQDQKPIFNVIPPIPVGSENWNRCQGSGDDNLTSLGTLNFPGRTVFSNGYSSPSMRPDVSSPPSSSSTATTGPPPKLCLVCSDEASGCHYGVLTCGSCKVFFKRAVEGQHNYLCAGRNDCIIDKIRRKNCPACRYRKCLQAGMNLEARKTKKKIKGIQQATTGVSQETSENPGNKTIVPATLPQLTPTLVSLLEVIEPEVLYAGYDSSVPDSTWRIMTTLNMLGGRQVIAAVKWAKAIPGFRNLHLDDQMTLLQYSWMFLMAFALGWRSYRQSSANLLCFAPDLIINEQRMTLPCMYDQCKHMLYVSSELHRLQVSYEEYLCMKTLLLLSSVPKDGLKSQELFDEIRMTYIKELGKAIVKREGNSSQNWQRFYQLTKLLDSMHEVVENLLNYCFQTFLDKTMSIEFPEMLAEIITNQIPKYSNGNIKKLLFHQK

Compound | target or system | test | test system | setting | how to read | endpoint | result
Nc1c(C(=O)Nc2c(F)cc(F)cc2Br)sc2nc3c(cc12)CCC3 | H1299 |  |  | concentration not given, 12 h |  | GSSG level | increased
O=C(/C=C/c1nc2ccccc2[nH]1)c1c(-c2ccccc2)c2cc(Cl)ccc2[nH]c1=O |  |  | C3H/HeJ mouse, SW1 syngeneic melanoma | oral gavage, 100 mg/kg, 3 times weekly | reference: vehicle | tumour size reduction | > 2 fold
CC(=O)O[C@H]1CC[C@@]2(C)[C@@H](CC[C@H]3[C@H]2CC(=O)[C@@]2(C)[C@@H]3C[C@H]3CC(C)=CC(=O)[C@H]32)C1 | NR3C1 | nuclear translocation, agonist, enzyme fragment complementation |  |  |  | EC50 | > 9000 nM
CCCCCCCC(=O)OCC(COP(=O)(O)OC1C(O)C(O)C(OP(=O)(O)O)C(OP(=O)(O)O)C1O)OC(=O)CCCCCCC (centres unmarked) | PLCδ1 PH-ASAP1 chimera | membrane binding, sedimentation | LUVs with PtdSer |  |  | Kd | 700 nM and 730 nM
Cc1cc(C)c(CNC(=O)c2cc(-c3ccc(N4CCN(CCNC(=O)CC56CC7CC(CC(C7)C5)C6)CC4)nc3)cc3c2cnn3C(C)C)c(=O)[nH]1 | panel of 45 kinases | kinase activity |  | 10 µM |  | inhibition | < 10%
CCN1CCN(Cc2ccc(NC(=O)c3ccc(C)c(Oc4ncnc5cc(OC)c(OC)cc45)c3)cc2C(F)(F)F)CC1 | FLT3-ITD human | KINOMEscan competition binding |  | 1.0 µM |  | residual probe binding | 5.2%
O=C(Nc1cccnn1)N1CC(Oc2ccc(-c3ccccc3F)cn2)C1 |  | refers to: anandamide | healthy humans, plasma | oral, repeated dosing, trough concentration-response |  | Emax | ~3 ng/mL
COc1cc(CC(=O)NCC(NC(=O)C(CCCNC(=O)c2cccc(I)c2)NC(=O)C(Cc2ccc(C(F)(F)P(=O)(O)O)cc2)NC(=O)c2ccc(C)c(Br)c2)C(N)=O)ccc1O (centres unmarked) | primary mouse hepatocytes | Western blot |  | 100 nM, 1 h, added: insulin 5 nM, 5 min | reference: DMSO | IR Tyr1162/1163 phosphorylation increase | 100%
Cc1ccc([C@H](CC(=O)O)NC(=O)Nc2c(O)c(C)cn(Cc3ccccc3Cl)c2=O)cc1 | B-ALL cells | flow cytometry |  | 1 to 25 µM, 24 to 96 h |  | surface integrin alpha-5 level | no effect
c1cc2cn[nH]c2cc1-c1cnc2ccc(NC3CCOCC3)nn12 | HuR | western blot | cytoplasm | concentration not given | reference: untreated | protein level | decreased
CCCCCCCCCCCCCC=C[C@@H](O)[C@H](CO[C@@H]1O[C@H](CO)[C@@H](O[C@@H]2O[C@H](CO)[C@H](O)[C@H](O[C@]3(C(=O)O)C[C@H](O)[C@@H](NC(C)=O)[C@H]([C@H](O)[C@@H](CO)O[C@]4(C(=O)O)C[C@H](O)[C@@H](NC(C)=O)[C@H]([C@H](O)[C@H](O)CO)O4)O3)[C@H]2O)[C@H](O)[C@H]1O)NC(=O)CCCCCCCCCCCCCCCCC |  |  | C57BL/6 mouse, serum | intravenous, dose not given, added: α-GalCer 1 µg |  | serum IL-4 level | inhibited
Cc1cccc(NC(=O)c2nn(Cc3cnc[nH]3)c3c2CN(C(=O)c2ccc[nH]2)CC3)c1 | IDH1 R132C AML cells | granulocytic differentiation, flow cytometry |  | 3 µM, 6 to 7 days | reference: DMSO | CD15-positive cells | 0.92 ± 0.4 fold
C[C@@]12CC[C@H]3[C@H](CCC4=CC(=O)CC[C@H]43)[C@H]1CC[C@H]2OC1(O)C(=O)c2ccccc2C1=O | NR3C1 | nuclear translocation, agonist, enzyme fragment complementation |  |  |  | EC50 | > 9000 nM
Cc1c(O)cc2c(c1C)O[C@](C)(CCCC(C)C)CC2 | LNCaP | immunocytochemistry |  | 35 µM, 6 h |  | membrane-associated PDK1 | > 90%

A few entries again:
Compound | target or system | test | test system | setting | how to read | endpoint | result
CCN1CCN(Cc2ccc(NC(=O)c3ccc(C)c(Oc4ncnc5cc(OC)c(OC)cc45)c3)cc2C(F)(F)F)CC1 | FLT3-ITD human | KINOMEscan competition binding |  | 1.0 µM |  | residual probe binding | 5.2%
O=C(Nc1cccnn1)N1CC(Oc2ccc(-c3ccccc3F)cn2)C1 |  | refers to: anandamide | healthy humans, plasma | oral, repeated dosing, trough concentration-response |  | Emax | ~3 ng/mL
